Results gathered from unrelated publications.
Each numbered part is a random draw from the data of one study; scales do not carry over between parts. Values joined by “and” are separate records of one study, mostly repeats; a detail may differ.

Set 1
Structure (SMILES): O=C1CCC(N2Cc3cc(C4CCN(Cc5ccccc5)CC4)ccc3C2=O)C(=O)N1 (centres unmarked)
host	medium	route	dose	time	plasma concentration
ICR mouse, male	–	intravenous	1 mg/kg	1 h	87.1 ng/mL
ICR mouse, male	plasma	intravenous	1 mg/kg	8 h	8.24 ng/mL and 12.4 ng/mL
ICR mouse, male	plasma	intravenous	1 mg/kg	6 h	18 ng/mL and 12.4 ng/mL
male Sprague Dawley rats	plasma	oral	3 mg/kg	8 h	7.09 ng/mL
ICR mouse, male	plasma	oral	3 mg/kg	0.5 h	268 ng/mL and 283 ng/mL
Sprague Dawley rat, male	plasma	oral	3 mg/kg	0.5 h	49.7 ng/mL and 26.2 ng/mL and 70.7 ng/mL
male Sprague Dawley rats	plasma	intravenous	1 mg/kg	0.083 h	91.5 ng/mL
male ICR mice	plasma	intravenous	1 mg/kg	2 h	37.5 ng/mL

Set 2
Target: 5-hydroxytryptamine receptor 2B (HTR2B, Homo sapiens, UniProt P41595)
UniProt P41595, sequence (whole entry, looked up): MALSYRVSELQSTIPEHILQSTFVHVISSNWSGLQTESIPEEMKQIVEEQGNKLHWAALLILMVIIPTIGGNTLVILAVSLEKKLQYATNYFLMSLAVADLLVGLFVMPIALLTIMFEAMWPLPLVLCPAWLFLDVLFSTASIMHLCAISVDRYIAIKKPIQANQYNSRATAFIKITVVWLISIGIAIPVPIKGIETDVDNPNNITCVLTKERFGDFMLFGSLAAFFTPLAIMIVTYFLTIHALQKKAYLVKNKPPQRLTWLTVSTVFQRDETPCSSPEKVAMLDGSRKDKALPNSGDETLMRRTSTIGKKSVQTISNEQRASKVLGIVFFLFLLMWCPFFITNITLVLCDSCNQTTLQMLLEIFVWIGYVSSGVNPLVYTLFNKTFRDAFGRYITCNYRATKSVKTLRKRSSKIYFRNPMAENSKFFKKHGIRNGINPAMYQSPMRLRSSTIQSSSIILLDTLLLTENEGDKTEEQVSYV
Effect on: ligand displacement
Tested at: 10 µM
SMILES	inhibition [%]
C[C@@]1(Cc2ccc(C#N)cc2)C(=O)N(c2cc(Cl)cc(Cl)c2)c2ncc(C(=O)NC3(c4nc(C5CCC5)no4)CC3)n21	15.5
COCc1nc2cnc3cc(-c4c(C)noc4C)c(OC[C@H]4CCNC4)cc3c2n1[C@H](C)c1ccccc1	-10.5
Cc1cc(Nc2nccc(C)n2)cc(-c2cnc([C@@]3(O)CC[C@H](C(=O)O)C(C)(C)C3)s2)c1	6.38
CS(=O)(=O)c1cc(C2(NC(=O)c3cncc4c3cnn4-c3ccc(F)cc3)CC2)ccn1	22.1
CC[C@H](CC(=O)O)n1c(=O)c2ncccc2n(Cc2cn(C)c3cc(C)cc(C)c23)c1=O	5.53
CNC(=O)Nc1ccc2c(c1)CC[C@]21OC(=O)N(CC(=O)N(Cc2ccc(F)cc2)[C@@H](C)C(F)(F)F)C1=O	81.4
COc1cc(-c2cn(C3CCc4c(F)cccc4N(CC(F)(F)F)C3=O)nn2)ccc1-n1cnc(C)c1 (centres unmarked)	5.58
C[C@@H](c1cccc(C#N)c1)n1cc(Cl)cc(C(N)=O)c1=N	3.93
c1ccc(C2CCN(c3cnc4c(N5CCOCC5)nccn34)CC2)cc1	17.7
CN1CCN(c2ccnc(NCCc3ccccc3)n2)CC1	91.7
NC(=O)c1ccc2nc(-c3ccc(C4(N)CCC4)cc3)c(-c3ccccc3)n2n1	13.4
Cc1c(NC(=O)c2cc(C(N)=O)nc3cc(F)ccc23)c(C(F)(F)F)nn1Cc1ccc(C#N)cc1	11.1
Cc1cc2c(-c3ccco3)cnc(N[C@H]3CCN(C)C[C@@H]3C(=O)NC3CCCCC3)c2[nH]c1=O	24.3
CC1=C(C#N)C(c2ccc3c(c2)c(NC(=O)c2ccccc2C)nn3C)C(C#N)=C(C)N1	11.4
COc1cc(C(=O)O)ncc1C#Cc1ccccc1NS(=O)(=O)c1cccc2c(N(C)C)ccnc12	34.9
O=C(NNS(=O)(=O)c1ccccc1F)c1cc(F)cc(-c2ccccn2)c1	2.94
CN(c1ccnc(CNc2nc(Nc3ccc4c(c3)CC(=O)N4)ncc2C(F)(F)F)n1)S(C)(=O)=O	13.5
Cc1noc([C@H]2C[C@@H](c3ccc(C(F)(F)F)cc3)CN(C(=O)N3CCS(=O)(=O)C3)C2)n1	16.8
C[C@H](c1ccc(F)cc1)N(Cc1ccc(Cl)c(C(=O)O)c1)C(=O)c1cnc2ccccc2c1	21.8
CN1CCN(C(=O)C(C)(C)c2ccc(C(=O)Nc3cn4cc(-c5cc(C(C)(C)C)cc(C(C)(C)C)c5)ccc4n3)cc2)CC1	44.1
Nc1nc(NCc2ccccc2)nc(-c2cccc(CO)c2)n1	41.8
CCOc1ccc(S(=O)(=O)Nc2ccc(Cl)cc2C#Cc2cnc(C(=O)O)cc2OC)c2ncccc12	8.83

Set 3
Target: Casein kinase II subunit alpha (CSNK2A1, Homo sapiens, UniProt P68400)
UniProt P68400, sequence (whole entry, looked up): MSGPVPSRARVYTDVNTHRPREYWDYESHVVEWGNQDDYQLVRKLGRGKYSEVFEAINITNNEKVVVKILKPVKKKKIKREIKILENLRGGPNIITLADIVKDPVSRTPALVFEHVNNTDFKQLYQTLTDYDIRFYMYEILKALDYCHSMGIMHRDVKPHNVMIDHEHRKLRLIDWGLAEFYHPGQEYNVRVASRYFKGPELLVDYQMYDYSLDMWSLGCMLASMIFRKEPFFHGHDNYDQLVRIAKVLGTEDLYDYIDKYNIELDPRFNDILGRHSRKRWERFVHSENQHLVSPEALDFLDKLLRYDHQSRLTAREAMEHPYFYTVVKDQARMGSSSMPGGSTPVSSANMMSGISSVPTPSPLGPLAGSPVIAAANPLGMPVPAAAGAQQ
Effect on: enzyme activity
Mode: inhibitor
Tested at: 0.5 µM
Relative to: control
SMILES	remaining activity [%]
c1ccc(-c2[nH]ncc2-c2ccnc3ccccc23)nc1	96.3
N#C/C(=C\c1ccc(O)c(O)c1)C(=O)NCc1ccccc1	86.6
Ic1cccc(CSc2nnc(-c3ccncc3)o2)c1	97.3
O=C1C(Cl)=C(N2C(=O)CCC2=O)C(=O)c2ccccc21	99.3
O=C(NC(NC(=S)Nc1ccc(F)c([N+](=O)[O-])c1)C(Cl)(Cl)Cl)C(c1ccccc1)c1ccccc1 (centres unmarked)	95.4
COc1cc2ncnc(Nc3ccc(O)c(Br)c3)c2cc1OC	93.7
CCN(CC)CCNC(=O)c1c(C)[nH]c(/C=C2\C(=O)Nc3ccc(F)cc32)c1C	121
CCN(CC)CCNC(=O)c1c(C)[nH]c(/C=C2\C(=O)Nc3ccc(Cl)cc32)c1C	91.4
CN(C)C[C@H]1CCn2c(c(C3=C(c4cn(C)c5ccccc45)C(=O)NC3=O)c3ccccc32)C1	98.9
COc1cc2c(cc1OC)-c1[nH]nc(Nc3cccc(F)c3)c1C2	96.6
CN([C@@H](Cc1ccc(OS(=O)(=O)c2cccc3cnccc23)cc1)C(=O)N1CCN(c2ccccc2)CC1)S(=O)(=O)c1cccc2cnccc12	100
Nc1cccc(-c2cc3c(Oc4cccc(O)c4)ncnc3[nH]2)c1	96.8
CCOc1nc(NC(=O)Cc2cc(OC)ccc2OC)cc(N)c1C#N	96.9
Cc1cc2ncc(-c3ccccc3)nc2cc1C	102
O=c1cc(-c2cccc3c2Sc2ccccc2S3)oc(N2CCOCC2)c1	97.4
CCN(CC)C(=O)c1ccc(Nc2nc(OCC3CCCCC3)c3[nH]cnc3n2)cc1	87.4
N#Cc1c(NC(=O)c2cccc3ccccc23)sc2c1CCCC2	101
C[C@@H]1CCN(C(=O)CC#N)C[C@@H]1N(C)c1ncnc2[nH]ccc12	104
O=C(Nc1cccc(Nc2nccc(Nc3cccc(C(F)(F)F)c3)n2)c1)C1CC1	94.1
O=C1c2ccccc2-c2n[nH]c3cccc1c23	75
Cc1nc2cc3nc(-c4cccs4)cnc3cc2n1C	101
c1ccc(-c2cnc(Nc3ccc(OCCN4CCCC4)cc3)s2)cc1	90.8
Cc1cn(-c2cc(NC(=O)c3ccc(C)c(Nc4nccc(-c5cccnc5)n4)c3)cc(C(F)(F)F)c2)cn1	117
Cn1nc2c3c(cccc31)C(=O)c1ccccc1-2	90.2

Further values, each from its own experiment
Cell line: A-375
Tested at: 100 µM
Time: 60 h
Compound	viability
CCCCCCCCCC[C@H](C(=O)O)[C@]1(C(=O)O)CCC(=O)O1	105%
Cc1cc(-c2ccc(/N=N/c3ccc4c(S(=O)(=O)O)cc(S(=O)(=O)O)c(N)c4c3O)c(C)c2)ccc1/N=N/c1ccc2c(S(=O)(=O)O)cc(S(=O)(=O)O)c(N)c2c1O	108%

Some of these lines once more (set 3):
SMILES	remaining activity [%]
CCN(CC)CCNC(=O)c1c(C)[nH]c(/C=C2\C(=O)Nc3ccc(Cl)cc32)c1C	91.4
CN(C)C[C@H]1CCn2c(c(C3=C(c4cn(C)c5ccccc45)C(=O)NC3=O)c3ccccc32)C1	98.9
COc1cc2c(cc1OC)-c1[nH]nc(Nc3cccc(F)c3)c1C2	96.6
CN([C@@H](Cc1ccc(OS(=O)(=O)c2cccc3cnccc23)cc1)C(=O)N1CCN(c2ccccc2)CC1)S(=O)(=O)c1cccc2cnccc12	100
